{"data": "Measured values gathered from unrelated publications", "organism": "Enterococcus faecium", "note": "Lines come from different studies, so protocols differ."}
{"SMILES": "CNC(CC(C)C)C(=O)NC1C(=O)NC(CC(N)=O)C(=O)NC2C(=O)NC3C(=O)NC(C(=O)NC(C(=O)NCCCNC(=N)N)c4cc(O)cc(O)c4-c4cc3ccc4O)C(O)c3ccc(c(Cl)c3)Oc3cc2cc(c3OC2OC(CO)C(O)C(O)C2OC2CC(C)(NCc3ccc(-c4ccc(Cl)cc4)cc3)C(O)C(C)O2)Oc2ccc(cc2Cl)C1O (centres unmarked)", "test system": "ATCC BAA-2317 VanA", "conditions": "−NaH2PO4", "MIC": "0.3 µg/mL"}
{"SMILES": "C[C@H]1COc2c(N3CCN(C)CC3)c(F)cc3c(=O)c(C(=O)N[C@@H](CCCNC(=N)N)C(=O)N[C@@H](Cc4ccc(-c5ccccc5)cc4)C(=O)N[C@@H](CCCNC(=N)N)C(=O)N[C@@H](Cc4ccc(-c5ccccc5)cc4)C(=O)N[C@@H](CCCNC(=N)N)C(N)=O)cn1c23", "test": "broth microdilution", "test system": "ATCC 2316", "MIC": "5 µM"}
{"SMILES": "CCn1[c]([Au-]([Cl])([Cl])[Cl])[n+](CC)c2ccc(C(=O)OC)cc21", "test": "broth dilution", "test system": "DSM 20477", "conditions": "20 h, 37 °C", "MIC": "3.7 µM"}
{"SMILES": "CNC(CC(C)C)C(=O)NC1C(=O)NC(CC(N)=O)C(=O)NC2C(=O)NC3C(=O)NC(C(=O)NC(C(=O)NC(CCCNC(=N)N)C(N)=O)c4cc(O)cc(O)c4-c4cc3ccc4O)C(O)c3ccc(c(Cl)c3)Oc3cc2cc(c3OC2OC(CO)C(O)C(O)C2OC2CC(C)(N)C(O)C(C)O2)Oc2ccc(cc2Cl)C1O (centres unmarked)", "test": "broth microdilution", "test system": "ATCC BAA-2317 VanA", "MIC": "4 µg/mL"}
{"SMILES": "CC(C)CNCc1cc(N(C)C)c2c(c1O)C(=O)C1=C(O)[C@]3(O)C(=O)C(C(N)=O)=C(O)[C@@H](N(C)C)[C@@H]3C[C@@H]1C2", "test system": "494, Tet M and Tet L", "MIC": "1 µg/mL"}
{"SMILES": "CNC(CC(C)C)C(=O)NC1C(=O)NC(CC(N)=O)C(=O)NC2C(=O)NC3C(=O)NC(C(=O)NC(C(=O)NCCCNC(=N)N)c4cc(O)cc(O)c4-c4cc3ccc4O)C(O)c3ccc(c(Cl)c3)Oc3cc2cc(c3OC2OC(CO)C(O)C(O)C2OC2CC(C)(N)C(O)C(C)O2)Oc2ccc(cc2Cl)C1O (centres unmarked)", "test system": "ATCC BAA-2317 VanA", "conditions": "with: +POPE 100 µg/mL", "MIC": "4 µg/mL"}
{"SMILES": "C=C(NC(=O)C(=C)NC(=O)c1csc(C2=NC3c4csc(n4)C4NC(=O)c5csc(n5)C(C(C)(O)C(C)O)NC(=O)C5CSC(=N5)C(=CC)NC(=O)C(C(C)O)NC(=O)c5csc(n5)C3(CC2)NC(=O)C(C)NC(=O)C(=C)NC(=O)C(Cc2ccccc2)NC(=O)C(C(C)CC)NC2C=Cc3c(C(C)O)cc(nc3C2O)C(=O)OC4C)n1)C(N)=O (centres unmarked)", "test": "broth microdilution", "test system": "ATCC 12952 VRE", "conditions": "18 h, 37 °C", "MIC": "0.011 µg/mL"}
{"SMILES": "CN(C)c1cc(CNCC(N)=O)c(O)c2c1C[C@H]1C[C@H]3[C@H](N(C)C)C(O)=C(C(N)=O)C(=O)[C@@]3(O)C(O)=C1C2=O", "test system": "494, Tet M and Tet L", "MIC": "64 µg/mL"}
{"SMILES": "CC(C)C[C@H](NC(=O)[C@H](CC(N)=O)NC(=O)[C@H](CCCNC(=N)N)NC(=O)[C@@H](CC(C)C)NC(=O)[C@H](Cc1ccc(C(F)(F)F)cc1)NC(=O)[C@H](CC(=O)O)NC(=O)[C@H](CCCCN)NC(=O)[C@@H](CC(C)C)NC(=O)[C@H](CCCNC(=N)N)NC(=O)[C@H](CCC(N)=O)NC(=O)[C@@H](NC(=O)[C@@H](CC(C)C)NC(=O)[C@H](CCCNC(=N)N)NC(=O)[C@H](CCCCN)NC(=O)[C@H](Cc1ccc2ccccc2c1)NC(=O)CN)C(C)C)C(=O)N[C@H](C(N)=O)C(C)C", "test": "broth microdilution", "test system": "ATCC 51559", "MIC": "3.1 µM"}
{"SMILES": "CN(C)c1cc(CN2CCCCC2)c(O)c2c1C[C@H]1C[C@H]3[C@H](N(C)C)C(O)=C(C(N)=O)C(=O)[C@@]3(O)C(O)=C1C2=O", "test system": "494, Tet M and Tet L", "MIC": "0.125 µg/mL"}
{"SMILES": "CC1CCN(CCCN2/C(=C/c3cc(/C=C/c4c[nH]c5ccccc45)[n+](C)c4ccccc34)Sc3ccccc32)CC1", "test": "microbial growth, broth dilution", "test system": "ATCC49624", "MIC": "32 µg/mL"}
{"note": "Repeated from above:"}
{"SMILES": "CN(C)c1cc(CN2CCCCC2)c(O)c2c1C[C@H]1C[C@H]3[C@H](N(C)C)C(O)=C(C(N)=O)C(=O)[C@@]3(O)C(O)=C1C2=O", "test system": "494, Tet M and Tet L", "MIC": "0.125 µg/mL"}
